Published values from different studies.
Parts stem from different laboratories: compare values within a part only. Values joined by “and” are separate records of one study, mostly repeats; a detail may differ.

Sample 1
SMILES: COc1ccc(-c2c(Nc3ccccn3)[nH]c3c(C4=CCCCC4)c(-c4ccccc4)nn3c2=O)cc1
Species: cancer patients
Sample: plasma
Route: oral
Time: cycle 0 day -3
Notes: single dose
| conditions | AUC(0-72 h), geometric mean [ng·h/mL] |
| --- | --- |
| 200 mg | 54600 |
| 50 mg | 11100 |
| 150 mg | 42900 |
| 100 mg | 37100 |
| 400 mg | 31900 |

Sample 2
SMILES: c1ccc2c(-c3nn4c(-c5ccncc5)nnc4s3)c[nH]c2c1
Target: 1-phosphatidylinositol 3-phosphate 5-kinase (PIKFYVE, Homo sapiens, UniProt Q9Y2I7)
Chain of UniProt Q9Y2I7 (whole entry, looked up): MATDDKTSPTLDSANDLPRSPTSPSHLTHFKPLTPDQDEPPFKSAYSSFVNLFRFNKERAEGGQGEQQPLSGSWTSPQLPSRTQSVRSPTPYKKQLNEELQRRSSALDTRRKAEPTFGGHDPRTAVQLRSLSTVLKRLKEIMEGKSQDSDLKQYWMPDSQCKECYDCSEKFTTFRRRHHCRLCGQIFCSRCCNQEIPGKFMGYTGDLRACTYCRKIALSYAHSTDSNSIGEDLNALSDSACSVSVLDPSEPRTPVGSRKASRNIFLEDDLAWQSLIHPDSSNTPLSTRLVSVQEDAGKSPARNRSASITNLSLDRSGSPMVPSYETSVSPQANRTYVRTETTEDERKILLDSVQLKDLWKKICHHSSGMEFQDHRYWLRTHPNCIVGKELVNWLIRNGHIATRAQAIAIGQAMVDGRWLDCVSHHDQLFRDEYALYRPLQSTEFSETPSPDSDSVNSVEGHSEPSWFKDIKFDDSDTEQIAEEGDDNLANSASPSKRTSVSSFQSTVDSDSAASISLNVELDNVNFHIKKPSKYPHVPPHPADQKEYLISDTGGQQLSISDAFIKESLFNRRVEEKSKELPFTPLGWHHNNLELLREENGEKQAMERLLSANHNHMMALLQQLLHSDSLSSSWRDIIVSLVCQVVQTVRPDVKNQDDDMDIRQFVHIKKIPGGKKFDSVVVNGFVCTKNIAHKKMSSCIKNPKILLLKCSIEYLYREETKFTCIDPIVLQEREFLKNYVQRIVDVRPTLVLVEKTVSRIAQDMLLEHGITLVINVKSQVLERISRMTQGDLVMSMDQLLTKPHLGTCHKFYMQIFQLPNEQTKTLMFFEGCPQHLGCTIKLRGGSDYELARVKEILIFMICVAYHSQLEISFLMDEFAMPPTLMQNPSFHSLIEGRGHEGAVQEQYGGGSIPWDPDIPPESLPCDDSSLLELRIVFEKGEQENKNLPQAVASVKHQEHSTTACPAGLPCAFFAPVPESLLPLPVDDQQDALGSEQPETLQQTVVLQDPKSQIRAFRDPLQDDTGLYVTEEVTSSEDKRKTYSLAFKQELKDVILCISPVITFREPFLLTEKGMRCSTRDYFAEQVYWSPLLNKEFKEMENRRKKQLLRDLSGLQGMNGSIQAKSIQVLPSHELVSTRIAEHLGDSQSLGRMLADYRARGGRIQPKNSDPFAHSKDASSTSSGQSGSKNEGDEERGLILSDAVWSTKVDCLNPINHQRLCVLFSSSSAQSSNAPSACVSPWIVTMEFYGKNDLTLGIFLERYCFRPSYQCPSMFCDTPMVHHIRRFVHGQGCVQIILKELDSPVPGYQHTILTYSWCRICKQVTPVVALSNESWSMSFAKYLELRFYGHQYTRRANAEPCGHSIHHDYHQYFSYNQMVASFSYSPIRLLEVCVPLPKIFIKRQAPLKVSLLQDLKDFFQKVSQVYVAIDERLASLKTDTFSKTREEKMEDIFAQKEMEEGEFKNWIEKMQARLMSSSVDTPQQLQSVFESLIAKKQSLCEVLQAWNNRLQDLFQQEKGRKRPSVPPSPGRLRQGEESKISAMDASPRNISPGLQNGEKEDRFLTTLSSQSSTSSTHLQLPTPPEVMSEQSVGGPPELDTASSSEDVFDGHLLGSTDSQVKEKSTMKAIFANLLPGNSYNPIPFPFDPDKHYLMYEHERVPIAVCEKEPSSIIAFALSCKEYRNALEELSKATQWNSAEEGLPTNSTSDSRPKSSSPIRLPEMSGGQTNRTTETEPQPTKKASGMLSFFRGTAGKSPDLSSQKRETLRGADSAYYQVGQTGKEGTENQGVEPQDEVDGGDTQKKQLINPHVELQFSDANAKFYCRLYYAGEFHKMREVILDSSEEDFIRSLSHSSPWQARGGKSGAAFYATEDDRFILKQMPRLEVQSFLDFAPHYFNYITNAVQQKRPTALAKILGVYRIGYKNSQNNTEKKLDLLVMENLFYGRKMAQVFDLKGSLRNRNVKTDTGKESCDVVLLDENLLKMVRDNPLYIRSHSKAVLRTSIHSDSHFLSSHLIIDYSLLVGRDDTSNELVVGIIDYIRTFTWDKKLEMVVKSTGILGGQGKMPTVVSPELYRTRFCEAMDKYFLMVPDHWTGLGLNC
Method: KINOMEscan
Notes: unit not given
Relative to: DMSO
| conditions | remaining binding |
| --- | --- |
| 41.2 nM | 0.00189 and 0.00197 |
| 40.7 nM | 0.00193 and 0.00204 |
| 0.168 nM | 0.317 and 0.299 |
| 0.503 nM | 0.0826 and 0.0778 |
| 1100 nM | 0.00357 and 0.00171 |
| 3330 nM | 0.0014 and 0.00222 |
| 9900 nM | 0.00155 and 0.00223 |
| 367 nM | 0.00227 and 0.00161 |

Sample 3
SMILES: CC(C)n1cnc(-c2ccc(F)cc2)c1-c1ncc(C(=O)Nc2ccc(N3CCN(C)CC3)cc2)[nH]1
Method: phase 2a clinical trial
Species: patients with idiopathic pulmonary fibrosis
| conditions | patients with serious adverse events |
| --- | --- |
| 60 mg once daily, grade ≥3, without standard of care | 14.3% |
| 30 mg once daily, grade ≥3, without standard of care | 0% |
| 30 mg once daily, grade ≥3, with: standard of care | 18.2% |

Further values, each from its own experiment
| Compound | target or system | system | conditions | measurement | result |
| --- | --- | --- | --- | --- | --- |
| Clc1ccc(C(OCCN2CCCCC2)c2ccccc2)cc1 (stereo not drawn) | HaCaT | – | 100 µM, 36 h | viability | 4.61% |
| COc1cc(C(=O)OCCCN2CCCN(CCCOC(=O)c3cc(OC)c(OC)c(OC)c3)CC2)cc(OC)c1OC | – | male CD-1 mouse, dorsal root ganglia | subcutaneous, dose not given, 0.1667 h | tissue concentration | 1530 ng/mL |
